Measured values gathered from unrelated publications.
Parts stem from different laboratories: compare values within a part only.

Set 1
Target: Sal-like protein 4, full length isoform A (SALL4, Homo sapiens, UniProt Q9UJQ4, residues 1-1053)
Chain of UniProt Q9UJQ4 (whole entry, looked up): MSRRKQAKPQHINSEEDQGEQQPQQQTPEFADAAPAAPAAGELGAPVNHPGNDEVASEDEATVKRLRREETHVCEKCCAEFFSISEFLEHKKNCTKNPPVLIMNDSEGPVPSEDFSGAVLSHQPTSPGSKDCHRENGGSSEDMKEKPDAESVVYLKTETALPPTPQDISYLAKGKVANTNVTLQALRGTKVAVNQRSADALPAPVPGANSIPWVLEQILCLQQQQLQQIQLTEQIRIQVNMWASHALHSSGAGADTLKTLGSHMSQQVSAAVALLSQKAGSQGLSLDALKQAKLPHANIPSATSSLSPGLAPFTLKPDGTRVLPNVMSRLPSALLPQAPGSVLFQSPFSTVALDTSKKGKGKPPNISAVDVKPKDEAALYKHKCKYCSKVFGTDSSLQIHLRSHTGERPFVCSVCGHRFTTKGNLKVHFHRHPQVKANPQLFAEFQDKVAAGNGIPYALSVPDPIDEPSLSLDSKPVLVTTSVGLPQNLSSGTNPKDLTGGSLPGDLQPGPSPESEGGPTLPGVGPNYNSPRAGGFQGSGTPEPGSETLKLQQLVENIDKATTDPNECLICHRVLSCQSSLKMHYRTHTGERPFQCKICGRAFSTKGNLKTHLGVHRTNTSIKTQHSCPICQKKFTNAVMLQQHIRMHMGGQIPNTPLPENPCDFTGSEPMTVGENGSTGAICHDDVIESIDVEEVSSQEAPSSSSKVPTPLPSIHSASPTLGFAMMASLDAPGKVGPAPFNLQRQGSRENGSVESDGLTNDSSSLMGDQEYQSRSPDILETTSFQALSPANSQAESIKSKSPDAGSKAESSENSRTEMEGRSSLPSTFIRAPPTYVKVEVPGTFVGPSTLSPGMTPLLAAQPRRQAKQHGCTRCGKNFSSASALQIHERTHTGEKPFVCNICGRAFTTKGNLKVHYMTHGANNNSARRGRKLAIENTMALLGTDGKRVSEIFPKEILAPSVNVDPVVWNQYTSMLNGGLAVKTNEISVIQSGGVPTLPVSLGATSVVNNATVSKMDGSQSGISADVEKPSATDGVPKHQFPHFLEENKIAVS
Method: universal PBM
Molecule type: double-stranded DNA, one strand shown
Sample: in vitro
Tested at: 600 nM
Setting: 8-mer, flanks averaged, mean of replicates
Direction: higher = stronger binding
Strand | E-score
ATCAAACA | 0.171
AACTCATG | 0.169
GAGTATAA | 0.256

Set 2
Target: Phosphate system positive regulatory protein PHO4, full length, GST-tagged (PHO4, Saccharomyces cerevisiae, UniProt P07270, residues 1-312)
Method: competition protein-binding microarray
Molecule type: double-stranded DNA, one strand shown
Sample: in vitro
Tested at: 2 µM
Setting: whole 60-bp probe, lowest competitor level
With: Cbf1 competitor, 0.05 µM
Direction: higher = stronger binding
Construct (chain): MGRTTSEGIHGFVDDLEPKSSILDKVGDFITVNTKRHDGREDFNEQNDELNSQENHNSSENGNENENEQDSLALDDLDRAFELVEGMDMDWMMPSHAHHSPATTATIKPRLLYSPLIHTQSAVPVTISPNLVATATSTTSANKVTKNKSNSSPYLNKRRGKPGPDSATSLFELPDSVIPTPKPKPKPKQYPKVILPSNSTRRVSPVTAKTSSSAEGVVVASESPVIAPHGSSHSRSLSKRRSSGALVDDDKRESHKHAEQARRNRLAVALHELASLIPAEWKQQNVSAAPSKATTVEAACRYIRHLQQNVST
Strand | fluorescence intensity [a.u.]
CTAACGAAGGTTTGAACTGTGGGTGACAAGCCAAGTGTCTTGATTCGCTTGACGCTGCTG | 3380
AAAGCGGTAATTTTTCACGTGCTTTCACATATCTATGTCTTGATTCGCTTGACGCTGCTG | 15900
CTTCTGTAAATTTGAGGCGTGGGTGGACGCGCCCCGGTCTTGATTCGCTTGACGCTGCTG | 7910
CGGGGTTAAGTTTGTCACGAGACTTGCTTGCAGCAGGTCTTGATTCGCTTGACGCTGCTG | 6480

Set 3
Target: Histone acetyltransferase KAT6A, winged helix 1, GST fusion (KAT6A, Homo sapiens, UniProt Q92794, residues 1-85)
Method: protein binding microarray
Molecule type: double-stranded DNA, one strand shown
Sample: in vitro
Tested at: not given
Setting: 8-mer, flanks averaged, mean of 2 arrays, mostly near background
Reference: not given
Direction: higher = stronger binding
Construct (chain): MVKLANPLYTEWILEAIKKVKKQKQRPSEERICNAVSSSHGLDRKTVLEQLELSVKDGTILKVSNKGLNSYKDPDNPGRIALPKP
Strand | E-score
AGAAAGTG | -0.108
GAATGAGC | -0.101
GCTCTCGA | -0.156
CGATACTA | 0.0837

Other studies, line by line
Substance | target | test | test system | conditions | how to read | quantity | value
PhoQ, residues 284 288 289 292 302 303 GTAMQF | PhoP, residues 12 14 15 18 19 LYHSL (Escherichia coli, UniProt P23836) | Sort-seq, item: YFP reporter | E. coli | PhoQ-PhoP variant library, with: 10 µM Mg2+ | reference: high Mg2+ state, higher = stronger signaling | fold induction | 11.1
